Results pooled from the literature.
Every numbered part comes from another study and shows a few of its results, in no order. Substitutions count along the parent as printed.

Study 1
Target: CCND1, cyclin fold, Cln2 fusion (human)
Method: yeast growth competition, sequencing
Medium: yeast
Setting: weak parent motif
Relative to: not given
Reading: higher = stronger binding
Parent: RB1 docking peptide (human); PKPLKKLRFDIEG
| Substitution | normalised enrichment score |
| --- | --- |
| G13K | 0.414 |
| G13F | -0.187 |
| D10I | -0.374 |
| D10Q | -0.2 |
| G13V | -0.0992 |
| E12A | -0.458 |
| K5R | -0.14 |
| G13D | 0.176 |
| L7V | 0.212 |
| D10M | 0.835 |
| K5T | -0.184 |
| I11M | -0.457 |
| P1Q | -0.0516 |
| I11P | -0.433 |
| P3N | -0.395 |
| R8V | 0.454 |
| K5Q | 0.165 |
| P1V | 0.00565 |
| D10W | 0.484 |
| G13T | -0.612 |
| I11L | 0.254 |
| L7T | -0.72 |
| K6P | 1.15 |
| E12W | 0.45 |
| K6W | 0.194 |

Study 2
Target: PABPC1L2, full length, GST fusion (mouse, UniProt A0ABA7IW68)
Method: RNAcompete
Form: RNA
Medium: in vitro
Tested at: 20 nM
Setting: 7-mer, probes averaged, single round
Relative to: mean of 7-mers
Reading: higher = stronger binding
Target sequence (chain): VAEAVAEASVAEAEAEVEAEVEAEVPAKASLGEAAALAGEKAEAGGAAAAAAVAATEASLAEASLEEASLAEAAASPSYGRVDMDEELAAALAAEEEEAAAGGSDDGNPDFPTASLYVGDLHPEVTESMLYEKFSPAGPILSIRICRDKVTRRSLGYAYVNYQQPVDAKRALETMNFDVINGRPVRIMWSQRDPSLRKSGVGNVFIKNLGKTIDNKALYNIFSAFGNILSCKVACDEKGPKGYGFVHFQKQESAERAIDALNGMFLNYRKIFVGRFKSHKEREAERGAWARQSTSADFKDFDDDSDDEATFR
| Strand | 7-mer Z-score |
| --- | --- |
| AAGUGGC | 0.608 |
| CAGGUUU | -0.244 |
| CCUCCUG | -0.393 |
| GCGUGCA | -0.148 |
| GCGAUAC | 0.0406 |
| CACAAUA | 0.111 |
| UGUCCGU | -0.342 |
| UCUGACC | -0.434 |
| ACGAGGC | 0.0696 |
| GGCGGUA | 0.182 |
| CUGGGCC | -0.258 |
| CUGAGGA | 0.182 |
| CUUCCGA | -0.188 |
| CUUACCA | -0.291 |
| CCCUGAG | -0.311 |
| UAGUGUG | -0.251 |
| GUAGUAU | -0.264 |
| CGACGUA | -0.182 |

Study 3
Target: Interferon regulatory factor 7, full length, phosphomimetic (IRF7, Homo sapiens, UniProt Q92985, residues 1-503, S471D/S472D/S475D/S476D/S477D/S483D/S484D/S487D)
Method: protein-binding microarray
Form: double-stranded DNA, one strand shown
Medium: in vitro
Tested at: 2200 nM top
Setting: 60-bp whole probe
Added: salmon DNA 0.4 mg/ml
Relative to: random background probes
Reading: higher = stronger binding
All sequences stand within: GCCTAGCAC … GTCTTGATTCGCTTGACGCTGCTG
Residues (chain): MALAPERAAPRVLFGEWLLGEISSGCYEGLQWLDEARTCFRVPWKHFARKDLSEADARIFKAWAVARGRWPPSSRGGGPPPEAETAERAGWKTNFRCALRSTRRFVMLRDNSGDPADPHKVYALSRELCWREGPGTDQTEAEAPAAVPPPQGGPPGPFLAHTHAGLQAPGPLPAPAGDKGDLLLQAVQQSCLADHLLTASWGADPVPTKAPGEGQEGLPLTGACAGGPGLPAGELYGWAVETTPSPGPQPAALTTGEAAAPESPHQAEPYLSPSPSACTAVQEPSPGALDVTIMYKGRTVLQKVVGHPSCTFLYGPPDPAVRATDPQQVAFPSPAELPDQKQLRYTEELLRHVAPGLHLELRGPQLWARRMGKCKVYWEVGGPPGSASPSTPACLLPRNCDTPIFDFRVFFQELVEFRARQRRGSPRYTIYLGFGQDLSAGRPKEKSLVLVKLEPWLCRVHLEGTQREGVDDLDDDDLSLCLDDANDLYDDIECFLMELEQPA
| Strand | fitted relative affinity |
| --- | --- |
| TTAGAATTGAGACTGGATTAGTGCTAG | -0.926 z-score |
| GACGATTTCGGGACTGGAGCCGTGCTA | 1.13 z-score |
| TTAGATTTCGGGTATCGGTTAGTGCTA | 3.28 z-score |
| TACGAACTGAGTCTCGAGACGTGCTAG | 0.0932 z-score |
| GACCAACTGAGTATCGAGACGTGCTAG | -0.0542 z-score |
| TTAGGAGTGGGTTTCGGTTAGTGCTAG | 3.86 z-score |
| TACGGACTGGGGTATCGGGACGTGCTA | -0.54 z-score |
| TTAGATATAGGGTATCGATTAGTGCTA | -0.497 z-score |
| TTAGGTTTCGGTCTCGGTGAGTGCTAG | 6.67 z-score |
| TCAATTTTTTTTTTCTAACTGTGCTAG | 1.21 z-score |
| TTTTATTTATAAATTATCTTGTGCTAG | 0.11 z-score |
| TTACAATTTGCTTTAGTCATGTGCTAG | 1.37 z-score |
| TTAGGTATCCTTATCCTTTCGTGCTAG | 1.54 z-score |
| TCATTTAGAAATTTCTTACTGTGCTAG | 0.536 z-score |
| CTAACTTTCCAATTGTCCTTGTGCTAG | 4.57 z-score |
| GACTGTTTCCTTTCCCTGACGTGCTAG | 4.2 z-score |
| TTAGGTTTCGGACTGGGTTAGTGCTAG | 3.15 z-score |
| TGCTGTGTACATCTCTCTTAGTGCTAG | 0.912 z-score |
| CAGGCAGGAGAAGTGAATGAGTGCTAG | -1.23 z-score |

Study 4
Substance: PhoQ, residues 284 288 289 292 302 303 AGHLVA
Method: Sort-seq
Item: YFP reporter
Medium: E. coli
Setting: PhoQ-PhoP variant library
Added: 10 µM Mg2+
Relative to: high Mg2+ state
Reading: higher = stronger signaling
| target | fold induction |
| --- | --- |
| PhoP, residues 12 14 15 18 19 NYFRM (Escherichia coli, UniProt P23836) | 14.2 |
| PhoP, residues 12 14 15 18 19 QYFSL (Escherichia coli, UniProt P23836) | 2.56 |
| PhoP, residues 12 14 15 18 19 TQALL (Escherichia coli, UniProt P23836) | 18.8 |
